Experimental data of several laboratories.
A part holds a random share of what one study measured. Positions count from the first letter of the parent shown.

Study 1 — target: CCNA1, cyclin fold, Cln2 fusion (human); technique: yeast growth competition, sequencing; medium: yeast; notes: weak parent motif; reference: not given; direction: higher = stronger binding
Parent: MASTL docking peptide (human); PMIAKNLMCELDE
`N6P`: “normalised enrichment score” -0.148.
For `L7N`, “normalised enrichment score” read -0.0139.
`E10L`: “normalised enrichment score” 0.391.
`A4K`: “normalised enrichment score” 0.685.
For `M8N`, “normalised enrichment score” read -0.079.
`K5W` — result for “normalised enrichment score”: 0.0161.
For `C9H`, “normalised enrichment score” read -0.246.
`I3F`: “normalised enrichment score” -0.0103.
`N6E`: “normalised enrichment score” -0.305.
`M2R`: “normalised enrichment score” 0.214.
`M8H`: “normalised enrichment score” 0.121.
For `N6C`, “normalised enrichment score” read 0.0349.
For `I3T`, “normalised enrichment score” read 0.194.
Under “normalised enrichment score”, `I3Y` is recorded as -0.0127.
For `D12N`, “normalised enrichment score” read 0.298.
Under “normalised enrichment score”, `L11A` is recorded as -0.0253.
`M8D` — result for “normalised enrichment score”: 0.157.
Under “normalised enrichment score”, `L7E` is recorded as 0.344.
For `E10Q`, “normalised enrichment score” read 0.495.
Under “normalised enrichment score”, `A4E` is recorded as -0.19.
Under “normalised enrichment score”, `C9A` is recorded as 0.24.
For `K5I`, “normalised enrichment score” read 0.059.
`I3M`: “normalised enrichment score” -0.132.
For `L7R`, “normalised enrichment score” read 0.0056.

Study 2 — technique: DHFR PCA, deep sequencing; medium: yeast; added: (+)-ABA 200 µM; reference: wild-type fitted maximum; direction: higher = stronger binding
Target: ABI1, truncated, D143A, DHFR fusion (Arabidopsis thaliana)
Notes: methotrexate growth selection, single substitutions
Parent: PYL1, truncated, DHFR fusion (Arabidopsis thaliana); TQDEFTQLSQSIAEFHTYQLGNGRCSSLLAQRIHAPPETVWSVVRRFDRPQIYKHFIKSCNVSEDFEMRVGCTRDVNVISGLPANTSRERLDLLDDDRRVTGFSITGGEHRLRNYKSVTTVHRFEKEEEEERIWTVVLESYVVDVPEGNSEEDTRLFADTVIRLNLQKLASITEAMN; partner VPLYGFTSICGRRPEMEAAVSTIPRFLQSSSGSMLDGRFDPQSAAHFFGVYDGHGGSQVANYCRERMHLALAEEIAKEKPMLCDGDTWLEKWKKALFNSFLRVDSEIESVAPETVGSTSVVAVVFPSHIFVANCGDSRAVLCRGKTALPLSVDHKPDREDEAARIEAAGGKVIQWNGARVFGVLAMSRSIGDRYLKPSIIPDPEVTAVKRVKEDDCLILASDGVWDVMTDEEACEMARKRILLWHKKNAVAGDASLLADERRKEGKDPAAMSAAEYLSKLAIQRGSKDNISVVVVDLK
For `E147I`, “relative binding score” read 92.9%.
`I79N`: “relative binding score” 94%.
`S63D`: “relative binding score” 102%.
`E152H` — result for “relative binding score”: 90.5%.
For `E64H`, “relative binding score” read 100%.
Under “relative binding score”, `A35E` is recorded as 26.8%.
For `E67S`, “relative binding score” read 101%.
For `E152Y`, “relative binding score” read 90.9%.
For `V43F`, “relative binding score” read 92%.
For `T173S`, “relative binding score” read 97.4%.
`I33A` — result for “relative binding score”: 45.9%.
`W134A`: “relative binding score” 100%.
Under “relative binding score”, `I172W` is recorded as 71.7%.
`L28A` — result for “relative binding score”: 67.6%.
`V137Q`: “relative binding score” 4.88%.
For `H122L`, “relative binding score” read 50.9%.
For `H34W`, “relative binding score” read 83.7%.
`V143I` — result for “relative binding score”: 45.5%.
For `D48F`, “relative binding score” read 7.14%.
Under “relative binding score”, `I133T` is recorded as 109%.
`I79H` — result for “relative binding score”: 106%.
Under “relative binding score”, `R69Q` is recorded as 98.2%.
For `R46E`, “relative binding score” read 86.9%.
`T6E`: “relative binding score” 102%.
`G108A` — result for “relative binding score”: 34.6%.

Study 3 — technique: protein-binding microarray; form: hairpin DNA; medium: in vitro; tested at: not given; reference: not given; direction: higher = stronger binding
Target: Runt-related transcription factor 3, Runt domain (RUNX3, Homo sapiens, UniProt Q13761, residues 53-186)
Sequence of UniProt Q13761 (53-186, looked up): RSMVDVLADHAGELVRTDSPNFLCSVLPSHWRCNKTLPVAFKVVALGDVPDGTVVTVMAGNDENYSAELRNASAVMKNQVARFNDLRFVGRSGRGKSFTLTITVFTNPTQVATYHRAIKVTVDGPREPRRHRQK
Notes: whole hairpin DNA, median over replicate spots
With `CTCAGTCCTGTGGGCTGGACTCCTGTCCAGCCCACAGGACTGAGACACTC (5mC at 7)` the median fluorescence was 4030 a.u.
The median fluorescence of `GAGGCCTGTCGCGGGTGGCCTCCTGGCCACCCGCGACAGGCCTCACACTC (5mC at 30)` is reported as 5460 a.u.
The median fluorescence of `GAGGCCTGTTGCGGCTGGCCTCCTGGCCAGCCGCAACAGGCCTCACACTC (5mC at 15)` is reported as 5800 a.u.
`GAGGCCTGTTGCGGATGGCCTCCTGGCCATCCGCAACAGGCCTCACACTC` gave a median fluorescence of 4950 a.u.
With `GAGGCCTGTCGCGGTTGGCCTCCTGGCCAACCGCGACAGGCCTCACACTC (5mC at 12 34)` the median fluorescence was 6110 a.u.
With `GAGGCCTGTCGCGGTCGGCCTCCTGGCCGACCGCGACAGGCCTCACACTC (5mC at 16)` the median fluorescence was 5910 a.u.
With `GAGGCCTGTTGCAGTTGGCCTCCTGGCCAACTGCAACAGGCCTCACACTC` the median fluorescence was 4630 a.u.
`GAGGCCTGTCGCGGTTCGCCTCCTGGCGAACCGCGACAGGCCTCACACTC (5mC at 17)` has a median fluorescence of 5470 a.u.
With `GAGGCCTGTTGCGGTTGGCCTCCTGGCCAACCGCAACAGGCCTCACACTC (5mC at 28)` the median fluorescence was 9500 a.u.
For `GAGGCCCAACCGGAACAGCCTCCTGGCTGTTCCGGTTGGGCCTCACACTC (5mC at 32)`, the median fluorescence was 4760 a.u.
`GAGGCCTGTTGTGGTCGGCCTCCTGGCCGACCACAACAGGCCTCACACTC (5mC at 16 28)` gave a median fluorescence of 5600 a.u.
`CTCAGTTCTGTGGGCTGGACTCCTGTCCAGCCCACAGAACTGAGACACTC (5mC at 35)` gave a median fluorescence of 3770 a.u.
`GAGGCCCAACCGCCGCAGCCTCCTGGCTGCGGCGGTTGGGCCTCACACTC (5mC at 30)` gave a median fluorescence of 6850 a.u.
`GAGGCCTGGCGCGGTTGGCCTCCTGGCCAACCGCGCCAGGCCTCACACTC (5mC at 36)` has a median fluorescence of 6290 a.u.
With `GAGGCCCAAGCGCAACAGCCTCCTGGCTGTTGCGCTTGGGCCTCACACTC` the median fluorescence was 5200 a.u.
`GAGGCCTCTTGCGGTTGGCCTCCTGGCCAACCGCAAGAGGCCTCACACTC (5mC at 8)` has a median fluorescence of 7860 a.u.
The median fluorescence of `CTCAGTTCTGTGCGCTGGACTCCTGTCCAGCGCACAGAACTGAGACACTC (5mC at 13 31)` is reported as 4110 a.u.
The median fluorescence of `GAGGCCTGTCGCGCTTGGCCTCCTGGCCAAGCGCGACAGGCCTCACACTC` is reported as 5070 a.u.
The median fluorescence of `GAGGCCTGTTATGGTTGGCCTCCTGGCCAACCATAACAGGCCTCACACTC` is reported as 4130 a.u.

Study 4 — technique: RNA Bind-n-Seq; form: RNA; medium: in vitro; tested at: 365 nM; reference: no-protein control; direction: higher = stronger binding
Target: RNA binding protein fox-1 homolog 2, RRM domain, GST-SBP tag (RBFOX2, Homo sapiens, UniProt O43251-10, residues 100-194)
Notes: natural RNA segment, single round, ends assumed
Constant ends, left off below: GGGAGUUCUACAGUCCGACGAUC … UGGAAUUCUCGGGUGCCAA
Construct (chain): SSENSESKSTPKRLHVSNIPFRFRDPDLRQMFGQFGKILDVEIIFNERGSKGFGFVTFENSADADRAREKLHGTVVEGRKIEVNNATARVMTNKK
Under “RBNS enrichment (R)”, `UGACAUCCAUAAACAGAGGCAGGCCUAGGCUCUGGAAAGAUCCUCAGUCCUUUCUUACAACAACUUGGAGCCAUAGUAACCUCCGAAAUGAGGUCUCAGCAAGCCACUUU` is recorded as 0.213.
`AUGUCAACAGCCAUGGUGAACCAGAUCUGGGCAGGGUUCCCCAAACUCUAUUCAACCAGAGUUUUAUCACGCACCUCAUCGGGUCUCUCCUGGUUGCUGCCCCGAGGUGA` — result for “RBNS enrichment (R)”: 0.335.
For `UAUUCAUUUGCCCCAUCACCUCUGUCUAAAGGCCCAAGUCCUAGGGCUGCCAUGGUCACAAGCACACUGAUGCUCCUUAAGAUUGUUUAUCUGGAGCCCACAUAGUGUGG`, “RBNS enrichment (R)” read 0.316.
Under “RBNS enrichment (R)”, `GUCCUCCUGUUCUUGGGAAGCGUUGCCUGACGGCUUCUCGGCUCUACCCUCACCCUUCUGGCCAGGAUCCCGCAGGGCAACAGCCCCAUCUGCUUGGCUGACCCCACACC` is recorded as 0.664.
For `UAGCCUCCUAUCUGCAAGCAGAGUAGUGCUCUGCUCUGGGGAGGGGUCAUUGGAAACCAUAAUGCAGAGUGGGCCCCCUACUCCAUUUCCCAGCAAAAGGCUCCAGCUGG`, “RBNS enrichment (R)” read 0.386.
`UAGUGUUUCACAAAGCUUAGACCUUUACCUUCCAGCCACCCCACAGUGCUUGAUAUUUCAGAGUCAGUCAUUGGUUAUACAUGUGUAGUUCCAAAGCACAUAAGCUAGAA` — result for “RBNS enrichment (R)”: 0.352.
Under “RBNS enrichment (R)”, `UUAAGAUGGAAGACUUCCUUCUUGACAAAUUGUGUUUUUAGUGAAUUUCUUAAACCGUUUUAUUUAGCCCUCCUUCCCUCUUUCUAGUUGGAAGCCAAAUGUACUCAUGA` is recorded as 0.476.
`CAGACCUAAUGGAUCACUGUCUUGCAGCUAGUUCUUCAUGUGGGGCCUCUUAGGCCAGUGCCGGAGGAGGCAUGCUCCUCUUUCUAUGCCACAGAACAAACACUACUCUA` — result for “RBNS enrichment (R)”: 0.399.
Under “RBNS enrichment (R)”, `GCGAAGUCUAAAACCGGUCUCUUUUUUAUUUGUUACUUGGAUGAGAGCACCUGAAGACUAAUGUUUUACACUGGAUUGAGAUCUCAUGGAAAAUGAAACAUUCUUUUUCU` is recorded as 0.885.
`UGUGUAGCCUACUGACAGCUUUGGUUAACCCACUGCACAUCACCCAGUCAUUUACCCAACUUACUCUAGAAAUGUCCACAGCUAAGGAAGGCUCCUGAGCCAGUCAGGCG`: “RBNS enrichment (R)” 0.397.
For `CAGAGUACAGUAGAGGAGGACUUGUUAGGUUCAUUGUUCCCCGGAAGAAGCUUCCUGCAAUGCCCAGGAGCAUCCCACAGGCAAUAGAGUACCAAUAUGGUAGACCUCUU`, “RBNS enrichment (R)” read 0.269.
`UUUUUGGUGCUGUAUGUGAUGAGAGACUCAUUCAUAGUGGAUCAAUGAAUAAUCUCUUGUAGGUAACUUUAUUUGAAAAUAAAGAUUUCCUUUUACUUCCAGAAUAACCA`: “RBNS enrichment (R)” 0.471.

Some of these lines once more (study 3):
`GAGGCCTGTCGCGGTTCGCCTCCTGGCGAACCGCGACAGGCCTCACACTC (5mC at 17)` has a median fluorescence of 5470 a.u.
With `GAGGCCTGTTGCGGTTGGCCTCCTGGCCAACCGCAACAGGCCTCACACTC (5mC at 28)` the median fluorescence was 9500 a.u.
For `GAGGCCCAACCGGAACAGCCTCCTGGCTGTTCCGGTTGGGCCTCACACTC (5mC at 32)`, the median fluorescence was 4760 a.u.
`GAGGCCTGTTGTGGTCGGCCTCCTGGCCGACCACAACAGGCCTCACACTC (5mC at 16 28)` gave a median fluorescence of 5600 a.u.
`CTCAGTTCTGTGGGCTGGACTCCTGTCCAGCCCACAGAACTGAGACACTC (5mC at 35)` gave a median fluorescence of 3770 a.u.
`GAGGCCCAACCGCCGCAGCCTCCTGGCTGCGGCGGTTGGGCCTCACACTC (5mC at 30)` gave a median fluorescence of 6850 a.u.
`GAGGCCTGGCGCGGTTGGCCTCCTGGCCAACCGCGCCAGGCCTCACACTC (5mC at 36)` has a median fluorescence of 6290 a.u.
With `GAGGCCCAAGCGCAACAGCCTCCTGGCTGTTGCGCTTGGGCCTCACACTC` the median fluorescence was 5200 a.u.
`GAGGCCTCTTGCGGTTGGCCTCCTGGCCAACCGCAAGAGGCCTCACACTC (5mC at 8)` has a median fluorescence of 7860 a.u.
The median fluorescence of `CTCAGTTCTGTGCGCTGGACTCCTGTCCAGCGCACAGAACTGAGACACTC (5mC at 13 31)` is reported as 4110 a.u.
The median fluorescence of `GAGGCCTGTCGCGCTTGGCCTCCTGGCCAAGCGCGACAGGCCTCACACTC` is reported as 5070 a.u.
The median fluorescence of `GAGGCCTGTTATGGTTGGCCTCCTGGCCAACCATAACAGGCCTCACACTC` is reported as 4130 a.u.
